Results collected from several papers.
Lines come from different studies, so protocols differ. ± gives the spread as reported.

CCCCNc1ncc2c(/C=C/C(=O)N3CCC(OC)CC3)nn(Cc3cccc(C(F)(F)F)c3)c2n1
EC50 (OE33; cell growth or viability, resazurin; 5 days): > 30 µM

O=C(c1ccc(C2CCCCC2)cc1)N1CCCC1
hepatic clearance (liver microsome stability; mouse liver microsomes; 1 µM): 86 mL/min/kg

COc1cccc(C2CC(c3ccccc3Cl)Nc3nc(N)nn32)c1 (stereo not shown)
EC50 (MEF TRE-FLAG-LMNB1; protein level reduction, refers to: LMNB1): 17.1 µM

O=C(NCCO)c1ccc(C2CCCCC2)cc1
hepatic clearance (liver microsome stability; rat liver microsomes; 1 µM): 49 mL/min/kg

O=c1c(-c2cnn(-c3ccccc3)c2)c(C(F)(F)F)oc2c(O)c(O)ccc12
EC50 (NCI-H1299; apoptosis, flow cytometry): ~81 µM

COC1CCN(C(=O)/C=C/c2nn(Cc3cccc(C(F)(F)F)c3)c3nc(N4CCCCC4)ncc23)CC1
EC50 (OE33; cell growth or viability, resazurin; 5 days): > 30 µM

Cc1ccncc1.[Cl-].[Cl-].[Ru+2].c1cc(-c2ccc3cccnc3n2)nc(-c2ccc3cccnc3n2)c1.c1ccc2cc3nc4c5cccnc5c5ncccc5c4nc3cc2c1
EC50 (SK-MEL-28; photocytotoxicity; light 633 nm, oxygen 1%): 67.1 ± 2.2 µM

COC(=O)[C@H](C)NC(=O)[C@H](C)NC(=O)c1csc(-c2cccnc2)n1
EC50 (Calu-1; cell growth or viability): > 30 µM

CCNc1ncc2c(/C=C/C(=O)N3CCC(OC)CC3)nn(Cc3cccc(C(F)(F)F)c3)c2n1
EC50 (OE33; cell growth or viability, resazurin; 5 days): 0.93 µM

CC(C)(C)c1cc(-c2ccc3cccnc3n2)nc(-c2ccc3cccnc3n2)c1.COc1ccncc1.[Cl-].[Cl-].[Ru+2].c1ccc2cc3nc4c5cccnc5c5ncccc5c4nc3cc2c1
EC50 (SK-MEL-28; cell viability; light 633 nm, 100 J/cm2): 0.396 ± 0.017 µM

CSCCC(C(=O)Nc1ccc2c(c1)OCCO2)N1Cc2ccccc2C1=O (stereo not shown)
EC50 (MEF TRE-FLAG-LMNB1; protein level reduction, refers to: LMNB1; resynthesized batch): 7.2 µM

[Cl-].[Cl-].[Ru+2].c1ccc(-c2ccccn2)nc1.c1ccc(-c2ccccn2)nc1.c1ccc2cc3nc4c5cccnc5c5ncccc5c4nc3cc2c1
EC50 (SK-MEL-28; cell viability, resazurin; dark, 1% O2 hypoxia): 115 ± 3 µM

C=C(NC(=O)c1csc(-c2cccnc2)n1)C(=O)NC(=C)C(=O)OC
EC50 (Calu-1; cell growth or viability): 6.1 µM

CCCNc1ncc2c(/C=C/C(=O)N3CCC(OC)CC3)nn(Cc3cccc(C(F)(F)F)c3)c2n1
EC50 (FLO-1; cell growth or viability, resazurin; 5 days): 3.36 µM

CCCCCCCCCCCCNC(=S)NCCCC[C@H](NC(=O)OCc1ccccc1)C(=O)N[C@@H](Cc1c[nH]c2ccccc12)C(=O)NC(C)C
EC50 (HEK-293T; cell growth or viability, MTT; 72 h): 2.36 to 3.17 µM

CC[C@H]([C@H](C)c1ccc(O)cc1)[C@H](CC)c1ccc(O)cc1
EC50 (MCF7; cell growth or viability, ATP luminescence; 5 days): 0.0015 µM
